Experimental data collected from several papers.
Every numbered part comes from another study and shows a few of its results, in no order.

Series 1 — technique: RNA Bind-n-Seq; molecule type: RNA; sample: in vitro; concentration: not given; relative to: input RNA pool; reading: higher = stronger binding
Target: RING finger protein unkempt homolog, zinc fingers 1-6, GST-SBP tag (UNK, Homo sapiens, UniProt Q9C0B0, residues 30-357)
Chain of UniProt Q9C0B0 (30-357, looked up): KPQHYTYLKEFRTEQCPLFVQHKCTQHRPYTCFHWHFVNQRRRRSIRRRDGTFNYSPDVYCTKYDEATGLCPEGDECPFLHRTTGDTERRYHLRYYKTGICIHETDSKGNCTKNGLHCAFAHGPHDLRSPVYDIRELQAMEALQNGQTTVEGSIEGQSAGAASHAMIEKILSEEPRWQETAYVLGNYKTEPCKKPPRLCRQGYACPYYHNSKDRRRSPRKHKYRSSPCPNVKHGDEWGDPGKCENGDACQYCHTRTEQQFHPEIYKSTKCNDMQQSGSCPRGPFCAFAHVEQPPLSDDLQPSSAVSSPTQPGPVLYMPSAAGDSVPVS
Setting: RNA with constant flanks, human and mouse sites, ends assumed
| Sequence | bound/input enrichment [ratio] |
| --- | --- |
| GGGAGUUCUACAGUCCGACGAUCUGCUUAAUGUAUUAGACAUUUUUAGCCCAUAAUUAAAACAUUGUUGCUUUUACACAGGUGUAGUUUGGUGCAUUUCAUUCAUAGUGUUUUAAAGUUAUUUAUAAAUUAACCAAUUACACUCAACAGAGGAUUGAGCAUCA | 7.65 |
| GGGAGUUCUACAGUCCGACGAUCUUUUUUAAGUUUUUUUAACGUCUGCUUUUAGAAGUGGAGCUUUGACAGGGUGUUUGCUCGAUAGAAAGGCAGCCUCUGUCCUUAAGAAGAGAUUGUUACCAAGACUCCAGGCUAGGAGAGCAACAGAGGAUUGAGCAUCA | 1.1 |
| GGGAGUUCUACAGUCCGACGAUCAAUGCUGUUCCUUUGGGAACCACGGCCAAAGAAGAGAUGGAGCGGUUCUGGAAUAAGAAUAUAGGUUCAAACCGUCCUCUGUCUCCCCACAUUACUAUCUACAGUUGGUCUCUUCCCAUGCAACAGAGGAUUGAGCAUCA | 0.144 |

Series 2 — technique: RNA Bind-n-Seq; molecule type: RNA; sample: in vitro; concentration: 365 nM; relative to: no-protein control; reading: higher = stronger binding
Target: RNA binding protein fox-1 homolog 2, RRM domain, GST-SBP tag (RBFOX2, Homo sapiens, UniProt O43251-10, residues 100-194)
Setting: natural RNA segment, single round, ends assumed
Constant ends, left off below: GGGAGUUCUACAGUCCGACGAUC … UGGAAUUCUCGGGUGCCAA
Residues (chain): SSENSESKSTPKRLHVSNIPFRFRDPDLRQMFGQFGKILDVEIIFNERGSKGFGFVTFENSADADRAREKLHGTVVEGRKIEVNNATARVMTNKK
| Sequence | RBNS enrichment (R) |
| --- | --- |
| GCACACAUCCAUUGGACUAUGCAAAUCAAUUUCUACUAGCAGCACUGAGCAACUGGGCACGUGCUAGUACGCACCCCCUCCUACUCUAACUGUGCUAGCUCUUGGGUUGA | 0.498 |
| AGACUGUUCCAUCUCAUUCCUCGCAAAUUUGAGCUCUUCUGAUCAAUUCUAAAUAUUUGAUUAAUUUUAAUUCUGAAAGAAAAUUUUGAGGAUUUAAGCUUAGGGGAUUU | 0.378 |
| AGUAGUUGUUGGAGACCUGGUAGUGGGAAGGAUGUUAUGGGUCACUGGAAAGUGGCCAGUCUUCACAGCAUCCUUUCAUCUUUUCCUCUUCCACAAAAUCAGUGUCCUGU | 0.359 |
| UUCAGUUGGGAUAGGCUUGUUUUGUCUGUUGAAAAUGUUUCUAGUUUUUUUUCUUUCAUUUUUCUCUCAUUCCAUUUCUGCCUUAACUUUAGUUUGUUCACAGGGAGGCA | 0.919 |
| AUUAUAGGUGCCCAGGCUGAGGUGAAGAGGCCUGGGGGCCCUGCCUUCCGGGCGCUCCUGGACCCUGGGGCAAACCUGUGACCCUUUUCUACUGGAAUAGAAAUGAGUUU | 0.384 |
| UAGGGACUGCUGGGGAUCUUUUCUUUCUUUCCUUCAGUAUUUGGUACUUUACCAGAGAGGUGUACAUACUUCUUUUCAGUGUUGUGACCAAGUGCUGCGACUCAGCCAAC | 0.306 |

Series 3 — technique: protein binding microarray; molecule type: double-stranded DNA, one strand shown; sample: in vitro; concentration: not given; relative to: not given; reading: higher = stronger binding
Target: Histone acetyltransferase KAT6A, both winged helices, GST fusion (KAT6A, Homo sapiens, UniProt Q92794, residues 1-181)
Setting: 8-mer, flanks averaged, mean of 2 arrays, mostly near background
Construct (chain): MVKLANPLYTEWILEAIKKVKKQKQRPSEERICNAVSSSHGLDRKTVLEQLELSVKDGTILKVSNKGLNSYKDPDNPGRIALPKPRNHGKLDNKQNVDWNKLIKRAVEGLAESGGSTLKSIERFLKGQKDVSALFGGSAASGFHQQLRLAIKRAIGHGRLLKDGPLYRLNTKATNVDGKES
| Sequence | E-score |
| --- | --- |
| AAGTCAAT | -0.0942 |
| CAATTGGA | -0.135 |
| AGGTGCTC | -0.171 |
| GAGAGGCC | -0.107 |

Single results of other studies
| Substance | target | assay | test system | conditions | how to read | quantity | value |
| --- | --- | --- | --- | --- | --- | --- | --- |
| PhoQ, residues 284 288 289 292 302 303 SNGLAW | PhoP, residues 12 14 15 18 19 IQSYL (Escherichia coli, UniProt P23836) | Sort-seq, refers to: YFP reporter | E. coli | PhoQ-PhoP variant library, added: 10 µM Mg2+ | relative to: high Mg2+ state, higher = stronger signaling | fold induction | 9.97 |

For quick reference, copied from above (series 3):
| Sequence | E-score |
| --- | --- |
| GAGAGGCC | -0.107 |
| AGGTGCTC | -0.171 |
